Results pooled from the literature.
Numbered parts are unrelated; each lists some results of a single study. Substitutions count along the parent as printed.
Chain of UniProt Q13422 (whole entry, looked up): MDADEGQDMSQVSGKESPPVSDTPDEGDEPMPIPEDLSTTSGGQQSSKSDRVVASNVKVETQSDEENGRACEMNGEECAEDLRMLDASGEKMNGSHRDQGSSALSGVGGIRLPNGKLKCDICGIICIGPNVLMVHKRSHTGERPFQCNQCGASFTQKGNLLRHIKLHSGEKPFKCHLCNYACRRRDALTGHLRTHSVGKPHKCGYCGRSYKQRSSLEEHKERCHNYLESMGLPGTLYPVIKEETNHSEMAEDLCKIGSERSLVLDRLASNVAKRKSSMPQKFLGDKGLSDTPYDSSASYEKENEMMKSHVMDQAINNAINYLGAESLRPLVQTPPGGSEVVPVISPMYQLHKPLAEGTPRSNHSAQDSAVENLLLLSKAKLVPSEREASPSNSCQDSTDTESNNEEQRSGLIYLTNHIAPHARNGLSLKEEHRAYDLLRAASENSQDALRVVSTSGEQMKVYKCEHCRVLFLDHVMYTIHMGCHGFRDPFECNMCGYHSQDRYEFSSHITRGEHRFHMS

Series 1 — effect on: binding; method: phage display NGS; molecule type: peptide; setting: panning round 2; baseline: input library; measurement: minimum log2 enrichment ratio
Target: UDP-N-acetylglucosamine--peptide N-acetylglucosaminyltransferase 110 kDa subunit (OGT, Homo sapiens, UniProt O15294)
Chain of UniProt O15294 (whole entry, looked up): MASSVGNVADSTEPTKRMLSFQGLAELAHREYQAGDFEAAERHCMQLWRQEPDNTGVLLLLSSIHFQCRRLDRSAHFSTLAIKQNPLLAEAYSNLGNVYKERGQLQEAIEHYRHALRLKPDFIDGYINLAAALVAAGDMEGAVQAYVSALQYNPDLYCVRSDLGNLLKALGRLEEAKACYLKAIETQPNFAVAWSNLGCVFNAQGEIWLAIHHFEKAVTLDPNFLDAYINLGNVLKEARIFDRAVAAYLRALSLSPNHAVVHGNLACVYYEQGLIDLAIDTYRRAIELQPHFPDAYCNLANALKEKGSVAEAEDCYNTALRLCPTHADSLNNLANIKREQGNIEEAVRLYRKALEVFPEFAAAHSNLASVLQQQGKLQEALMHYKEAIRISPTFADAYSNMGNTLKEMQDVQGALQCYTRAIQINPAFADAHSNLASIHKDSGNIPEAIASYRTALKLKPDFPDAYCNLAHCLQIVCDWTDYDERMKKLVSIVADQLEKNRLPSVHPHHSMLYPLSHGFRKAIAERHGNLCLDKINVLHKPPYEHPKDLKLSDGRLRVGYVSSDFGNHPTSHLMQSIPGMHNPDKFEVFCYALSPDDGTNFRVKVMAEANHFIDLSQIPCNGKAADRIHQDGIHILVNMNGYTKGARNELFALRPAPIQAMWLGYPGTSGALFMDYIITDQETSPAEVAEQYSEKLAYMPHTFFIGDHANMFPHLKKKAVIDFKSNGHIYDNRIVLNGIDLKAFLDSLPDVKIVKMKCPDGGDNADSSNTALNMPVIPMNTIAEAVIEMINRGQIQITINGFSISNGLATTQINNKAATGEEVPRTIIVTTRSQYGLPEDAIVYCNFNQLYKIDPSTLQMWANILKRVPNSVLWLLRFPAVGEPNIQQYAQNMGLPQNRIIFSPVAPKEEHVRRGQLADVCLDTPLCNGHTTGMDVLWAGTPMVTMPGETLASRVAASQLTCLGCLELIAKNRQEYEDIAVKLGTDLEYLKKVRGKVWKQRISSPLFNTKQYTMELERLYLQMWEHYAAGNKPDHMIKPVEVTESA
HSQHMFEHEHVVKA: 2.27
RMDHTQRPLWHQHHN: 2.74
SMLSHYHEVMRHHRV: 2.25
QVFWPQYQINIPKLN: 3.83
RYLPIYQILTHTQPF: 3.54
QQFSKLFPPKYTIDF: 6.73
MHHAFEGDHVWMHAG: 2.05
YETMDVFMPQYKIIA: 3.2

Series 2 — target: tungstate, free oxyanion; method: microfluidic competitive inhibition; sample: in vitro, cell-free expressed; concentration: not given; direction: lower = stronger binding; measurement: oxyanion analog dissociation constant
Setting: derived from inhibition constants, unchanged parent 2230 nM
Starting sequence: PafA, mature enzyme, eGFP fusion (Elizabethkingia meningoseptica, UniProt Q9KJX5); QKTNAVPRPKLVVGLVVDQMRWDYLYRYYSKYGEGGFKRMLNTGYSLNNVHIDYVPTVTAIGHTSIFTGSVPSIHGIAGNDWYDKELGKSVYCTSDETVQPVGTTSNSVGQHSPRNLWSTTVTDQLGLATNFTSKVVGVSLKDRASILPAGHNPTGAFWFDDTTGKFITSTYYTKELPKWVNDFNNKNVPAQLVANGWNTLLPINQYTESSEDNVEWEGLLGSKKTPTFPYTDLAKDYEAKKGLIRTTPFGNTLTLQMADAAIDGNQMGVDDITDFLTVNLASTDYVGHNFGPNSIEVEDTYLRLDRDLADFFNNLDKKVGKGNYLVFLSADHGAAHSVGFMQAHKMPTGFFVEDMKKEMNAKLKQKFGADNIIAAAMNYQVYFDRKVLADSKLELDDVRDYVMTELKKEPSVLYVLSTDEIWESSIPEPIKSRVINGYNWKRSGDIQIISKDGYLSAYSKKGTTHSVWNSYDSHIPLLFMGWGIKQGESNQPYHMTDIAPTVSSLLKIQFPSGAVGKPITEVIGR
E209V: 2.19 µM
Y455G: 983 nM
I509G: 1.06 µM
V413A: 2.83 µM
M40V: 2.41 µM
K365V: 2.04 µM
G62A: 83.4 nM
A259G: 2.38 µM

Series 3 — target: CCNA1, cyclin fold, Cln2 fusion (human); method: yeast growth competition, sequencing; sample: yeast; setting: weak parent motif; baseline: not given; direction: higher = stronger binding; measurement: normalised enrichment score; starting sequence: viral docking peptide; KGVKRKLFAEDSS
KGVKRKLPAEDSS [F8P]: -0.00639
KGVKRKLFCEDSS [A9C]: 0.826
KGVKRKLFTEDSS [A9T]: 1.1
KGVKRKLFAEMSS [D11M]: 0.852
KGVKRKLFAEISS [D11I]: 0.686
KGVKRKLFAIDSS [E10I]: 0.52
KGVKRKLAAEDSS [F8A]: 0.482
KGVKRKLFQEDSS [A9Q]: 1.26

Mixed results
O=C1CCC(N2Cc3c(ccc4c3OCC43CCN(Cc4ccccc4)CC3)C2=O)C(=O)N1 (stereo not shown) — remaining protein (DNA-binding protein Ikaros (Homo sapiens, UniProt Q13422); degrader, HiBiT; HEK293; 0.001524 µM, 6 h): 104%

A few entries again (series 1):
QQFSKLFPPKYTIDF: 6.73
MHHAFEGDHVWMHAG: 2.05
YETMDVFMPQYKIIA: 3.2
